# Experimental data pooled from the literature.
# Numbered parts are unrelated; each lists some results of a single study. Changes are numbered by the printed parent chain.

# Set 1 — method: aptamer microarray, sandwich; molecule type: DNA with 2'F-ANA; matrix: in vitro; concentration: 200 nM; with: Cy3 exosite-II aptamer, 400 nM; direction: higher = stronger binding; strand: GGTTGGTGTGGTTGG
# Target: Prothrombin, mature alpha-thrombin (F2, Homo sapiens, UniProt P00734)
# Setting: whole 15-mer aptamer, many near background
Modification,mean fluorescence intensity
2'F-ANA at 1 2 3 6 7 8 9 10 13,65.1 a.u.
2'F-ANA at 3 4 5 7 8 13 15,74.4 a.u.
2'F-ANA at 2 6 9 12,667 a.u.
2'F-ANA at 1 3 4 5 7 8 9 11 12 13,72.2 a.u.
2'F-ANA at 4 6 7 8 11 13 14 15,79.4 a.u.
2'F-ANA at 2 3 4 5 10 14,82.4 a.u.
2'F-ANA at 2 3 4 9 11 12 15,686 a.u.
2'F-ANA at 1 2 4 5 6 7 9,60.7 a.u.
2'F-ANA at 1 2 3 4 6 8 9 12 13 15,222 a.u.
2'F-ANA at 1 5 8 9 10 13,46.1 a.u.
2'F-ANA at 1 2 7 8 9 10 11 13 14 15,75.4 a.u.
2'F-ANA at 1 2 3 4 7 8 9 10 14,72.2 a.u.
2'F-ANA at 1 3 5 7 8 12 14,47.5 a.u.
2'F-ANA at 1 2 3 4 6 9 10 11 12 13 15,70 a.u.
2'F-ANA at 4 5 6 8 9 10 11 12 13 14,51.6 a.u.
2'F-ANA at 1 5 9 12 13 14 15,45.2 a.u.
2'F-ANA at 2 5 6 7 10 11 12,49.9 a.u.
2'F-ANA at 1 4 12 15,370 a.u.
2'F-ANA at 3 4 5 6 8 10 11 12,54.5 a.u.
2'F-ANA at 1 2 10 11 12 14 15,57 a.u.
2'F-ANA at 6 7 8 9 11 14,182 a.u.
2'F-ANA at 1 2 5 7 10 13,44.2 a.u.
2'F-ANA at 1 2 3 4 6 7 8 12 13 14,74 a.u.
2'F-ANA at 1 3 4 6 7 8 10 11 13 14,53.1 a.u.
2'F-ANA at 1 3 7 10 11 13,94.5 a.u.

# Set 2 — target: CCNE1, cyclin fold, Cln2 fusion (human); method: yeast growth competition, sequencing; matrix: yeast; setting: weak parent motif; relative to: not given; direction: higher = stronger binding
# Starting sequence: SAMHD1 docking peptide (human); ASKSRVQLFKDDP
Change,normalised enrichment score
K3H,0.334
S2Q,0.0137
S4Q,0.178
D11S,0.488
R5L,0.027
S4W,0.421
F9I,0.184
S2H,0.634
L8M,-0.245
D12N,0.252
F9W,0.235
R5E,0.0426
D11V,0.144
Q7N,0.0984
D11Y,0.0589
R5A,0.0712
S4K,-0.329
L8S,-0.109

# Set 3 — method: RNA Bind-n-Seq; molecule type: RNA; matrix: in vitro; concentration: 365 nM; relative to: no-protein control; direction: higher = stronger binding
# Target: RNA binding protein fox-1 homolog 2, RRM domain, GST-SBP tag (RBFOX2, Homo sapiens, UniProt O43251-10, residues 100-194)
# Setting: natural RNA segment, single round, ends assumed
# Target sequence (chain): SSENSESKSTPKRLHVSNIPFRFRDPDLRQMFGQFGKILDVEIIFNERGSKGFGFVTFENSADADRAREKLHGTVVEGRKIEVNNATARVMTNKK
Strand,RBNS enrichment (R)
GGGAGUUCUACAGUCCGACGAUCUUAACUCAUUAGUAUCAUAAACGUCAAGGAUUGAUUGGACCAGGCAAGAGCCAUGUUUUUGAGAAGGUUCUGGAUCUCUGACUCCAUCCUGACUGUUUAGUAAGAGCAUGUGGAAUUCUCGGGUGCCAA,1.03
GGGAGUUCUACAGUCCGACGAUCCCCAACACCUGCACUGGGCCAUCUAUGGGAAAGAACACGGGUCGAGUGCAGUCGAGUUGUCUGGCCAUCUGUAUUUGGAUCUAUAACUGUACUUUGCCUGGCGCUGUGCGUGGAAUUCUCGGGUGCCAA,1.09
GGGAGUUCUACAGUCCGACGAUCCAAUAAAGCCUGGUCUUUCUGUCUUUUCACAGAAAAUAAUAGUUCCUUUUAGGAUCUAGACAUACGGGUAAGACAUGACUCUCCCUGGAGCAGCUCUCUGCAGAACAAAAUGGAAUUCUCGGGUGCCAA,0.288
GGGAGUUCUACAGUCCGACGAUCUUUAUUUUGUUAUAAUUUAGUUACCAUUUUCAGUGUUAUUUCAAAGGUUCUUUGAAGAAUUUUGGGGCAGGGCAUCAGAUUAGAGUUUUAAAAUUUGAGUAUUUUGGAUAUGGAAUUCUCGGGUGCCAA,0.696
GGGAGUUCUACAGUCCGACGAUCCAGCUGAGCCUGAGCCAAUGGGACAGUUACACUUGACAGACAAAGAUGGUGGAGAUUGGCAUGCCAUUGAAACUAAGAGCUCUCAAGUCAAGGAAGCUGGGCUGGGCAGUUGGAAUUCUCGGGUGCCAA,0.77
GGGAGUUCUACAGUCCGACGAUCACACAAGCAUCAUGCAGUGGCGCGUCAUUUAUACCCACCGAGAGCUGUGGGGAGCAGCAUGGGCAAGGAAGACACAGACUCGCAUUACCCUUGGUCACUGUGAUUUCUGUUGGAAUUCUCGGGUGCCAA,1.06
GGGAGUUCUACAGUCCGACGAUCUCCUGAGAUAACAUUUGCAUUGUCGACCUCAGUUGACUGUUUUUACAAUAAAAAUAUUUUGCAGCUUUUUCCUGUGUUUUUAUAUUGUAAUUGAAUAUUUUCUUCCUUUUUGGAAUUCUCGGGUGCCAA,0.738
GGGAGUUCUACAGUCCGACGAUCAGUAAUGCUUGCUUGCUAAUGAAUGUAUAGGAGACCACAUUGUAAUUGUUCUUAGAUGAUGGAGUCCAUGCAGUUUCUUAGAAAUCGGUCUCAGUGCAUGCUGUGCUUUUUGGAAUUCUCGGGUGCCAA,18.6

# Set 4 — method: DHFR PCA, deep sequencing; matrix: yeast; with: (+)-ABA 710 µM; relative to: wild-type fitted maximum; direction: higher = stronger binding
# Target: ABI1, truncated, D143A, DHFR fusion (Arabidopsis thaliana)
# Setting: methotrexate growth selection, single substitutions
# Starting sequence: PYL1, truncated, DHFR fusion (Arabidopsis thaliana); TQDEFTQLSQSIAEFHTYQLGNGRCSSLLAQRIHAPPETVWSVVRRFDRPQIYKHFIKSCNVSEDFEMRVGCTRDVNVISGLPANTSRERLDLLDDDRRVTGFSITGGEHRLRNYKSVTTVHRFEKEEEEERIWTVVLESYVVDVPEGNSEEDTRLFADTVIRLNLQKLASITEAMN
Change,relative binding score [%]
K126R,109
V143I,67.2
I79N,102
E147L,96.4
E64C,100
V43F,94.5
E130R,107
C60V,98.3
E147I,97.8
